Measurements gathered from unrelated publications.
CAMK1: Calcium/calmodulin-dependent protein kinase type 1 (CAMK1, Homo sapiens, UniProt Q14012)

| SMILES | tested on | test | test system | setting | how to read | endpoint | result |
| --- | --- | --- | --- | --- | --- | --- | --- |
| COc1ccc(O)cc1-c1c[nH]c2ncc(-c3cncc(C(=O)N(C)C)c3)cc12 | CAMK1 | binding, competition with immobilised ligand |  | 0.2 µM |  | inhibition | -7.4% |
| Cc1ccc(C)c(-c2ccc3nc(NC(=O)C4CCCCC4)nn3c2)c1 | CAMK1 | enzyme activity, Dundee kinase panel |  | 10 µM |  | remaining activity | 75% |
| O=C=[N][Ru-4]123([n]4c5ccc(O)cc5c5c6c(c7cc(F)c[n+]1c7c54)C(=O)NC6=O)[S+]1CC[S+]2CC[S+]3CC1 (centres unmarked) | CAMK1 | enzyme activity |  | 100 nM, human enzyme, with: 10 µM ATP | baseline: untreated | remaining activity | 108% |
| Cc1nc2c(F)cc(-c3nc(Nc4ccc(CNC(=O)CCCCCCC(=O)NO)cc4)ncc3F)cc2n1C(C)C | CAMK1 | enzyme activity, inhibitor |  | 1 µM |  | inhibition | 43% |
| Cc1ccc(-c2c(/C=C(\C#N)C(=O)NC(C)C)n(CCCO)c3ncnc(N)c23)cc1 | CAMK1 | cell-free assay, competition with immobilised ligand |  | 1 µM |  | remaining binding | 100% |
| Cc1cccc(-c2ccc3nc(NC(=O)C4CCCO4)nn3c2)c1 (centres unmarked) | CAMK1 | enzyme activity, Dundee kinase panel |  | 10 µM |  | remaining activity | 74% |
| CN1CCN(Cc2ccc(-c3ccc(CO[C@H]4CCC[C@@H]4NC(=O)c4cc(-c5cnn(C)c5)cnc4N)cc3)cc2)CC1 | CAMK1 | enzyme activity, inhibitor |  | 0.1 µM |  | inhibition | -6% |
| Cc1cccc(O[C@H]2CCC[C@@H](C(C)CNCc3ccncc3)C2)c1 (relative stereo) | CAMK1 | enzyme activity |  | 10 µM |  | inhibition | -2% |
| O=C(Cc1ccc(OCc2ccccc2)cc1)NC1(C(=O)O)CCN(C(=O)c2ccc(-c3cccc(Cl)c3)cc2)CC1 | CAMK1 | enzyme activity, inhibitor |  | 10 µM |  | activity vs control | 111% |
| Cc1cnc2nc1Nc1cccc(c1)COC/C=C/COCc1cc(ccc1OCCN1CCOCC1)N2 | CAMK1 | binding |  | 0.1 µM |  | remaining binding | 68% |
| COc1cc(Nc2nc(C)cc(-c3cnn4nc(OC)ccc34)n2)cc(C(F)(F)F)c1 | CAMK1 | inhibitor |  | 1 µM | baseline: control | remaining activity | 75% |
| CC(=O)Nc1ccc([C@H]2[C@@H](F)[C@@H](F)C[C@@H](F)[C@H]2F)cc1 |  | liver microsome stability | human liver microsomes | 1 µM, without NADPH |  | hepatic clearance | 13 mL/min/kg |
| C=CC(=O)Nc1cccc(-c2cnc3[nH]cc(C(=O)NC(C)(C)C)c3n2)c1 | CAMK1 | kinase activity |  | 0.1 µM |  | inhibition | 4% |
| CNC(=O)C1CCN(c2cc(C)c(F)cc2NC(=O)c2ccc(-c3cc(O)ccc3C)c(C)c2)CC1 | CAMK1 | binding, competition with immobilised ligand |  | 1 µM |  | remaining binding | 96% |
| CC(C)=CC1OC(C)(C)C2C=C3C(=O)C(Cl)=CC(O)C3C3C(O)C4OC4C(=O)C132 (centres unmarked) | CAMK1 | cell-free assay, competition with immobilised ligand |  | 10 µM |  | remaining binding | 91% |
| NC(=O)C[C@H]1CCc2sc3ncnc(O[C@H]4CC[C@H](N5CCOCC5)CC4)c3c21 | CAMK1 | enzyme activity, inhibitor |  | 10 µM |  | inhibition | 5% |
| COc1c(Cl)cccc1Nc1c(-c2ccncc2C#C[C@@]2(C)CCCN2C(=O)/C=C/CN(C)C)[nH]c2c1C(=O)NCC2 | CAMK1 | cell-free assay, competition with immobilised ligand |  | 3 µM |  | remaining binding | 95% |
| COc1ccc(NC(=O)Nc2ccc3c(c2)C(=O)N(C(C)CO)CC(C)C(CN(C)Cc2ccc4c(c2)OCO4)O3)cc1 (centres unmarked) | CAMK1 | kinase activity, KinaseProfiler |  | 0.03 µM, species human | baseline: control | remaining activity | 101% |
| O=C(O)CCC(=O)c1cccc(NS(=O)(=O)c2c[nH]c3ncccc23)c1 | CAMK1 | kinase activity, radiometric |  | 10 µM |  | remaining activity | 98% |
| Nc1nc(Nc2ccccc2)sc1C(=O)c1ccccc1 | CAMK1 | enzyme activity, inhibitor |  | 10 µM |  | remaining activity | 34% |

Excerpt of the above:
| SMILES | tested on | test | test system | setting | how to read | endpoint | result |
| --- | --- | --- | --- | --- | --- | --- | --- |
| COc1cc(Nc2nc(C)cc(-c3cnn4nc(OC)ccc34)n2)cc(C(F)(F)F)c1 | CAMK1 | inhibitor |  | 1 µM | baseline: control | remaining activity | 75% |
| O=C(Cc1ccc(OCc2ccccc2)cc1)NC1(C(=O)O)CCN(C(=O)c2ccc(-c3cccc(Cl)c3)cc2)CC1 | CAMK1 | enzyme activity, inhibitor |  | 10 µM |  | activity vs control | 111% |
| Cc1ccc(C)c(-c2ccc3nc(NC(=O)C4CCCCC4)nn3c2)c1 | CAMK1 | enzyme activity, Dundee kinase panel |  | 10 µM |  | remaining activity | 75% |
